Experimental data collected from several papers.
Each line is one published result; not all experiments were run side by side. Values joined by “and” are separate records of one study, mostly repeats; a detail may differ. ± marks the error that the study gave.
CASP7: Caspase-7 (CASP7, Homo sapiens, UniProt P55210)
Sequence of UniProt P55210 (whole entry, looked up): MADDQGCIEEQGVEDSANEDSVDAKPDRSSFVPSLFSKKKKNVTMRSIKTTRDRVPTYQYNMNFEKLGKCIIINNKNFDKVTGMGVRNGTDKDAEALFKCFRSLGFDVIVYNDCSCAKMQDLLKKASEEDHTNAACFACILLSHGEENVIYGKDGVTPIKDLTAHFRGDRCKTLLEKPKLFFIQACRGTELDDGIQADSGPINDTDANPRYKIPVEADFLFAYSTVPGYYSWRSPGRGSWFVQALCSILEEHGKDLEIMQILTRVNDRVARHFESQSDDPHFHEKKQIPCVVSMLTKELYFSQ
T1: G-quadruplex DNA, parallel G-quadruplex (Homo sapiens); GGGCGGGCGCGAGGGAGGG
Sequence of UniProt Q9NQR4 (whole entry, looked up): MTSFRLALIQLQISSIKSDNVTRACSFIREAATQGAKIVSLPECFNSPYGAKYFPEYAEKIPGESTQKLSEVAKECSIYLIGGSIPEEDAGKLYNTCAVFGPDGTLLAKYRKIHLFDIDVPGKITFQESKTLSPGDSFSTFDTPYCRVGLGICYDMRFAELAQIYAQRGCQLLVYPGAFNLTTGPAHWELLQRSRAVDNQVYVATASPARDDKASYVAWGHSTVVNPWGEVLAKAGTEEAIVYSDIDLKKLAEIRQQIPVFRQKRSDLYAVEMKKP
Sequence of UniProt P21397 (whole entry, looked up): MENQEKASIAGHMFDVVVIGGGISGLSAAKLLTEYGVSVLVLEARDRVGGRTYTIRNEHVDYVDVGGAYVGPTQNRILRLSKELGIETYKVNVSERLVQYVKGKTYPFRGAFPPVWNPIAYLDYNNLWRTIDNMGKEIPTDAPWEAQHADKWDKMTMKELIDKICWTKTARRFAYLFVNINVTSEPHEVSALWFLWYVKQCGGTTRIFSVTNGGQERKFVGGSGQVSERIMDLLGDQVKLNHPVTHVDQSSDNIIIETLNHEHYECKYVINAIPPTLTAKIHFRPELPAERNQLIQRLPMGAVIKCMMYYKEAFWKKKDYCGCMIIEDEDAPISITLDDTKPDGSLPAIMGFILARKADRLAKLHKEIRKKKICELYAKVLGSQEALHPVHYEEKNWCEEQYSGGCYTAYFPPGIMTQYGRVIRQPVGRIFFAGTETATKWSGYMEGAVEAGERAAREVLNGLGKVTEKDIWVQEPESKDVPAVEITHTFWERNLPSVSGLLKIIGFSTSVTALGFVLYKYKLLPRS
Sequence of UniProt Q9NR31 (whole entry, looked up): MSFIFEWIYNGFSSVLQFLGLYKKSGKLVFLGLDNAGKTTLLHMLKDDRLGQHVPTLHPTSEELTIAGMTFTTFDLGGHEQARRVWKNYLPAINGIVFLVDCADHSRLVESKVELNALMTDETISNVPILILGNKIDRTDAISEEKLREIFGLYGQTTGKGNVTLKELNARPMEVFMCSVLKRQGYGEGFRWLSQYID
Sequence of UniProt P51451 (whole entry, looked up): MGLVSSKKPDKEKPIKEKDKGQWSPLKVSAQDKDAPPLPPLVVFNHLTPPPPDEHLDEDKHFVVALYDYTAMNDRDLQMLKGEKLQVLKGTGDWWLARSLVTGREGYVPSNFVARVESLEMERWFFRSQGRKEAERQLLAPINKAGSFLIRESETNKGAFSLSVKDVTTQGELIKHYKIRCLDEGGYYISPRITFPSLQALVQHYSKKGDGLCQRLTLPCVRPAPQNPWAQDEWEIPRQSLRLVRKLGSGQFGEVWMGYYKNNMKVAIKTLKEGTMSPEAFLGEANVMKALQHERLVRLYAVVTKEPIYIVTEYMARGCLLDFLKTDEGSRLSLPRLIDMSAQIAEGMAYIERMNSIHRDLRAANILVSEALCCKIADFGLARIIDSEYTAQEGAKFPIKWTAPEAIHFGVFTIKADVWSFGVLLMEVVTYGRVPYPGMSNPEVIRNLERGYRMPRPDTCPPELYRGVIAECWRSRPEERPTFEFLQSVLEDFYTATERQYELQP
Sequence of UniProt P34972 (whole entry, looked up): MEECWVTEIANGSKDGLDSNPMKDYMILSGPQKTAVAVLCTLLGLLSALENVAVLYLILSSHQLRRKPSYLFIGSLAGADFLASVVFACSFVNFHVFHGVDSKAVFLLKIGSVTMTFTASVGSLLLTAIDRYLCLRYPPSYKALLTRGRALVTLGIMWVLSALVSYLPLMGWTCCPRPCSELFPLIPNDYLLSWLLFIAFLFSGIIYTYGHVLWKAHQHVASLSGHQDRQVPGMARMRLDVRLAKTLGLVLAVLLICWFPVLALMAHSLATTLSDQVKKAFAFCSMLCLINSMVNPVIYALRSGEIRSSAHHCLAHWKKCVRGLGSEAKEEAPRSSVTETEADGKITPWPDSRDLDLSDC
Sequence of UniProt P06748 (whole entry, looked up): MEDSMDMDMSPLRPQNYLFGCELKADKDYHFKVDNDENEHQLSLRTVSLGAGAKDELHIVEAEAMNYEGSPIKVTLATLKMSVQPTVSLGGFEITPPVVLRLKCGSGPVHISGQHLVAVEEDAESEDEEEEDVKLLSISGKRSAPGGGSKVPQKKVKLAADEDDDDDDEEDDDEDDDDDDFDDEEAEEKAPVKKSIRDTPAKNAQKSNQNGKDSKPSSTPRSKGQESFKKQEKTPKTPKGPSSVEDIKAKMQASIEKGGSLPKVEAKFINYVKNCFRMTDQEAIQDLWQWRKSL
Sequence of UniProt P21728 (whole entry, looked up): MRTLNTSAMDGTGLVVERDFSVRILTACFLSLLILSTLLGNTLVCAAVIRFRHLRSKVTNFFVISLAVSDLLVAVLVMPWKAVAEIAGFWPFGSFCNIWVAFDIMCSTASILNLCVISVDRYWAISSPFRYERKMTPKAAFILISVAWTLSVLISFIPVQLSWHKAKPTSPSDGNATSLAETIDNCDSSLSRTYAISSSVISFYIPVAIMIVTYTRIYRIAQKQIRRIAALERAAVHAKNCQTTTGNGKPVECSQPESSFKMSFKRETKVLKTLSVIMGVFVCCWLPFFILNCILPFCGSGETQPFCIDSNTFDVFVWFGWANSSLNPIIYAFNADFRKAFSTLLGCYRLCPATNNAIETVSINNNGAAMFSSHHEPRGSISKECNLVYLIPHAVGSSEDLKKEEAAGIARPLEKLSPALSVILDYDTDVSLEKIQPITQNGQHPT
Sequence of UniProt P19491 (whole entry, looked up): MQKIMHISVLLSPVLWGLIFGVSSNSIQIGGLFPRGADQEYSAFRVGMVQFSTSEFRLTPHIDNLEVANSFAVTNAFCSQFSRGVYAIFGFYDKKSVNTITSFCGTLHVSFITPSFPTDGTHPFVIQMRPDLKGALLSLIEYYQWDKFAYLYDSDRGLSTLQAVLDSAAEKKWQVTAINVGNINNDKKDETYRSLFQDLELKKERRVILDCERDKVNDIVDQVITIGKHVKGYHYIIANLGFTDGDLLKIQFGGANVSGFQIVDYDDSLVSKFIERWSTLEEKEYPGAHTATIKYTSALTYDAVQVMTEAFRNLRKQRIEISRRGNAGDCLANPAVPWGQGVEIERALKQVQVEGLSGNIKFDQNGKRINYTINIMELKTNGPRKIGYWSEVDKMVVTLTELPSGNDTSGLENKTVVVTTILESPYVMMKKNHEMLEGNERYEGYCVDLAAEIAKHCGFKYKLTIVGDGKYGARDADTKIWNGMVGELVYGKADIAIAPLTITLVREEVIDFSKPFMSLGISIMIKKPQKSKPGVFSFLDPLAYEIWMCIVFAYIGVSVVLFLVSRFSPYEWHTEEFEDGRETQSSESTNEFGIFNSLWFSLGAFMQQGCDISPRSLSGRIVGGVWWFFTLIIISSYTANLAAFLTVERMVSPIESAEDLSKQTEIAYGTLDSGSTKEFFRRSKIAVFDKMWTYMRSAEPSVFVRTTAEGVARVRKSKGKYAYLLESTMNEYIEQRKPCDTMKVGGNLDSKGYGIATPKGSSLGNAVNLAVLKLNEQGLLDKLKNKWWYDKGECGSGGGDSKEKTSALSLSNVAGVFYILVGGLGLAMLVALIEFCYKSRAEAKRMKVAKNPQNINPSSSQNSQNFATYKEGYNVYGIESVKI
Sequence of UniProt Q5TFE4 (whole entry, looked up): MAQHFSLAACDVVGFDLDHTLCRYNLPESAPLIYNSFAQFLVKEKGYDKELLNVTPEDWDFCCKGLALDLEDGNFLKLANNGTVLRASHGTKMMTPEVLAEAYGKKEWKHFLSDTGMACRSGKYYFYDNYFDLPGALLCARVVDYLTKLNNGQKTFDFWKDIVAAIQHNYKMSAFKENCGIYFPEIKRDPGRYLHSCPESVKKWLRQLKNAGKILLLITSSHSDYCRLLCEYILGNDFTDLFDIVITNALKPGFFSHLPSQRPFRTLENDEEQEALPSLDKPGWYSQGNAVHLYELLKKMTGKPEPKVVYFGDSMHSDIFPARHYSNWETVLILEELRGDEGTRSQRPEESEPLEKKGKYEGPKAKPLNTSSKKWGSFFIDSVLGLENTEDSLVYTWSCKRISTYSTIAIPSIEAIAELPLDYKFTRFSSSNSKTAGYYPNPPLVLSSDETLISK

| SMILES | target | test | system | conditions | how to read | quantity | result |
| --- | --- | --- | --- | --- | --- | --- | --- |
| CCOC(=O)C(CC)(CCCSCCOCCNc1ccc([N+](=O)[O-])c2nonc12)NC(=O)c1ccc(C2CC2)c(Cc2ccc(F)cc2)n1 (centres unmarked) | Cannabinoid receptor 2 (CNR2, Homo sapiens, UniProt P34972) | radioligand binding | – | – | baseline: CB1 over CB2 (human) | Ki ratio | 19 |
| O=C(CN1CCCCC1)Nc1ccc2[nH]c(-c3cccc(-c4nc5cc(NC(=O)CN6CCCCC6)ccc5[nH]4)n3)nc2c1 | T1, G-quadruplex DNA, parallel G-quadruplex (Homo sapiens) | BLI | – | parallel G4, read off a plot | – | Kd | 5.88 µM |
| Cc1cc(NC(=O)[C@H](O)c2cc(F)cc(F)c2)ccc1-c1cnc(N)c(C(=O)NC(C)C)c1 | Tyrosine-protein kinase Blk (BLK, Homo sapiens, UniProt P51451) | binding, competition with immobilised ligand | – | 1 µM | – | remaining binding | 34% |
| N#CN1CC[C@H](C(=O)Nc2nc3c(s2)CN(C(=O)Cn2cc(COCCOCCOCCOCCNC(=O)CCCC[C@@H]4SC[C@@H]5NC(=O)N[C@@H]54)nn2)CC3)C1 | Omega-amidase NIT2 (NIT2, Homo sapiens, UniProt Q9NQR4) | probe binding, affinity probe, neutravidin pull-down LC-MS/MS | HEK293T, cell lysate | 5 µM, 1 h, single replicate, unit not given | higher = more pulled down | iBAQ abundance | 4.97e+08 and 3.27e+08 and 9.57e+07 |
| CC(=O)Nc1ccc(-c2ccnc(NCC3CCC3)n2)cc1 | human kinase panel | binding, KINOMEscan | – | 10000 nM, %Ctrl below 35 | – | number of kinases hit | 8 |
| CCCCCC(O)/C=C/C=O (centres unmarked) | 5'-nucleotidase domain-containing protein 1 (NT5DC1, Homo sapiens, UniProt Q5TFE4) | competitive isoTOP-ABPP, refers to: NT5DC1 cysteine peptide | proteome, soluble, MDA-MB-231 | 100 µM, together with: iodoacetamide probe | baseline: DMSO over compound-treated, higher = stronger cysteine blockade | isoTOP-ABPP competition ratio | 3.2 |
| O=C1c2sc(-c3ccc(N4CCC(CO)CC4)nc3F)nc2CCN1c1cccnc1 | D(1A) dopamine receptor (DRD1, Homo sapiens, UniProt P21728) | ligand displacement, radioligand | – | 1 µM | – | inhibition | 3% |
| Cc1cc(C)cc(COc2cc3c(cc2OCc2cc(C)cc(C)c2)C2CC(O)(Cc4cn(CCOCCOCCNC(=O)CCCCC5SCC6NC(=O)NC65)nn4)CC(C)N2CC3)c1 (centres unmarked) | Small COPII coat GTPase SAR1A (SAR1A, Homo sapiens, UniProt Q9NR31) | biotinylated probe pull-down, refers to: SAR1A | – | 10 µM probe | baseline: heavy over light | SILAC ratio | 1.56 |
| NC(=O)c1cccc(NC(=O)c2cc(-c3ccccc3)nn2-c2ccccc2)c1 | Genome polyprotein, NS2B-NS3 protease (dengue virus type 2, UniProt P29990) | reporter gene | HeLa | 12.5 µM | – | inhibition | 45% |
| COC(=O)Cc1cc2c(cc1C(=O)c1cccc(Br)c1)OCO2 | Glutamate receptor 2 (Gria2, Rattus norvegicus, UniProt P19491) | glutamate-evoked current, whole-cell patch clamp | HEK-293T | concentration not given, pH 7.4, holding potential -60 mV, together with: 10 mM glutamate | – | current amplitude | 565 ± 42 pA |
| CC(=O)N[C@@H](Cc1ccc(C)cc1)C(=O)N[C@@H](CCCC(=O)O)C(=O)N[C@H](C(=O)N[C@@H](CC(=O)O)C(=O)COC(=O)c1c(C)cccc1C)C(C)(C)C | CASP7 | enzyme activity, inhibitor | – | – | – | kinact/KI | 9000 M⁻¹ s⁻¹ |
| CC(C)c1ccc(/C=C/C(=O)c2nc3ccccc3[nH]2)cc1 | Amine oxidase [flavin-containing] A (MAOA, Homo sapiens, UniProt P21397) | enzyme activity, inhibitor | – | 10 µM | – | activity vs control | 55.9% |
| CC(=O)N[C@@H](CC(=O)O)C(=O)N[C@@H](CC(C)C)C(=O)N[C@H](C(=O)N[C@@H](C)C(=O)N[C@@H](CC(=O)O)C(=O)COC(=O)c1c(C)cccc1C)[C@@H](C)O | CASP7 | enzyme activity, inhibitor | – | – | – | kinact/KI | 3100 M⁻¹ s⁻¹ |
| N=C(N)NCCC[C@H](NC(=O)[C@@H]1CCCN1C(=O)[C@H](CCCNC(=N)N)NC(=O)[C@@H]1CCCN1C(=O)[C@H](CCCNC(=N)N)NC(=O)[C@@H]1CCCN1C(=O)[C@H](CCCNC(=N)N)NC(=O)[C@@H]1CCCN1C(=O)[C@H](CCCNC(=N)N)NC(=O)[C@@H]1CCCN1C(=O)[C@H](CCCNC(=N)N)NC(=O)[C@@H]1CCCN1C(=O)[C@H](CCCNC(=N)N)NC(=O)[C@@H]1CCCN1C(=O)[C@H](CCCNC(=N)N)NC(=O)[C@@H]1CCCN1C(=O)[C@H](CCCNC(=N)N)NC(=O)[C@@H]1CCCN1C(=O)[C@H](CCCNC(=N)N)NC(=O)[C@@H]1CCCN1C(=O)[C@H](CCCNC(=N)N)NC(=O)[C@@H]1CCCN1C(=O)[C@H](CCCNC(=N)N)NC(=O)[C@@H]1CCCN1C(=O)[C@H](CCCNC(=N)N)NC(=O)[C@@H]1CCCN1C(=O)[C@H](CCCNC(=N)N)NC(=O)[C@@H]1CCCN1C(=O)[C@H](CCCNC(=N)N)NC(=O)[C@@H]1CCCN1C(=O)[C@H](CCCNC(=N)N)NC(=O)[C@@H]1CCCN1C(=O)[C@H](CCCNC(=N)N)NC(=O)[C@@H]1CCCN1C(=O)[C@H](CCCNC(=N)N)NC(=O)[C@@H]1CCCN1C(=O)[C@H](CCCNC(=N)N)NC(=O)[C@@H]1CCCN1C(=O)[C@H](CCCNC(=N)N)NC(=O)[C@@H]1CCCN1C(=O)[C@H](CCCNC(=N)N)NC(=O)[C@@H]1CCCN1C(=O)[C@H](CCCNC(=N)N)NC(=O)[C@@H]1CCCN1C(=O)[C@H](CCCNC(=N)N)NC(=O)[C@@H]1CCCN1C(=O)[C@H](Cc1ccc(O)cc1)NC(=O)[C@H](CO)NC(=O)CN)C(=O)O | Nucleophosmin (NPM1, Homo sapiens, UniProt P06748) | SANS Guinier analysis | – | 0.7 molar excess over NPM1, 25 °C | – | radius of gyration | 54.3 ± 3.85 Å |

Repeated from above:
| SMILES | target | test | system | conditions | how to read | quantity | result |
| --- | --- | --- | --- | --- | --- | --- | --- |
| NC(=O)c1cccc(NC(=O)c2cc(-c3ccccc3)nn2-c2ccccc2)c1 | Genome polyprotein, NS2B-NS3 protease (dengue virus type 2, UniProt P29990) | reporter gene | HeLa | 12.5 µM | – | inhibition | 45% |
